Experimental data of several laboratories.
Numbered parts are unrelated; each lists some results of a single study.

Sample 1 — effect on: enzyme activity; mode: inhibitor; tested at: 20 µM
Target: Replicase polyprotein 1ab, polymerase (rep, Severe acute respiratory syndrome coronavirus 2, UniProt P0DTD1)
Compound	inhibition
NC(=O)c1cccc(N)c1	3.7%
O=c1ccc2ccccc2[nH]1	19.9%
CC(C(=O)O)c1ccc(-c2ccccc2)c(F)c1 (centres unmarked)	1.37%
O=C[C@H](F)[C@@H](O)[C@@H](O)[C@H](O)CO	-0.54%
c1ccc2sc(SN3CCOCC3)nc2c1	-1.18%
N#Cc1c(Oc2ccc(F)c(NC(=O)Cc3cccc(C(F)(F)F)c3)c2)ccc2nc(NC(=O)C3CC3)sc12	-1.55%
CCN1C[C@H](C)n2c(c(O)c3c(=O)n(Cc4ccc(F)c(Cl)c4)nc(C(=O)NC)c32)C1=O	-2.39%
FC(F)(F)c1ccccc1-c1cc(C(F)(F)F)c2nc(C3=NOC4(CCCCC4)C3)[nH]c2c1	0.22%
CC1(N)CCN(c2cnc(-c3cccc(Cl)c3Cl)c(N)n2)CC1	-2.86%
COc1cc(C[C@@H](CO)[C@H](CO)Cc2ccc(O)c(OC)c2)ccc1O	1.91%
Fc1ccc(C(OCCN2CCN(C/C=C/c3ccccc3)CC2)c2ccc(F)cc2)cc1	0.2%
CC1(C)O[C@@H]2C[C@H]3[C@@H]4CCC5=CC(=O)C=C[C@]5(C)[C@@]4(F)[C@@H](O)C[C@]3(C)[C@]2(C(=O)CO)O1	22.6%
Cc1c(C2CCN(CCc3ccccc3)CC2)noc1-c1ccc(Cl)cc1	0.15%

Sample 2 — technique: protein-binding microarray; form: double-stranded DNA, one strand shown; medium: in vitro; tested at: 250 nM; setting: 60-bp whole probe; with: salmon DNA 0.4 mg/ml; relative to: random background probes; direction: higher = stronger binding
Target: Interferon regulatory factor 7, full length, phosphomimetic (IRF7, Homo sapiens, UniProt Q92985, residues 1-503, S101K/S471D/S472D/S475D/S476D/S477D/S483D/S484D/S487D)
Residues (chain): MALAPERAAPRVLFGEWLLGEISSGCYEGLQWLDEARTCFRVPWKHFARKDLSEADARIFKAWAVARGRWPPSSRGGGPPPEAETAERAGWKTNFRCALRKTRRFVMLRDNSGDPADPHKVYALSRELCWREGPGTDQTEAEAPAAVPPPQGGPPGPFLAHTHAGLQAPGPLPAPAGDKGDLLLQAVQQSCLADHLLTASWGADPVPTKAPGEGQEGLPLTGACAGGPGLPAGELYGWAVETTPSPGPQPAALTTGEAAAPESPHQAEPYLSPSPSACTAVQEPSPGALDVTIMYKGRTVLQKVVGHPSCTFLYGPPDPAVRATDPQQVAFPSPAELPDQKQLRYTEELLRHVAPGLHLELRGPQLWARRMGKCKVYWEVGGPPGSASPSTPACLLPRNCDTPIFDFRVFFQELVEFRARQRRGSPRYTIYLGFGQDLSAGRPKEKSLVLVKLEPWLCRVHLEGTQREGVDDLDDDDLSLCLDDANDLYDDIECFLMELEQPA
Strand	log fluorescence [z-score]
GCCTAGCACTTGGGTATCGGGACTGGGTTAGTGCTAGTCTTGATTCGCTTGACGCTGCTG	-0.0404
GCCTAGCACGACGGTCTCGGTCTCGGAACGTGCTAGGTCTTGATTCGCTTGACGCTGCTG	1.22
GCCTAGCACTACGGTTTCCTTCTCCTGACGTGCTAGGTCTTGATTCGCTTGACGCTGCTG	2.76
GCCTAGCACGACGATTTCGGGTTTCGACACGTGCTAGTCTTGATTCGCTTGACGCTGCTG	3.5

Sample 3 — technique: protein binding microarray; form: double-stranded DNA, one strand shown; medium: in vitro; tested at: not given; relative to: not given; direction: higher = stronger binding
Target: Histone acetyltransferase KAT6A, both winged helices, GST fusion (KAT6A, Homo sapiens, UniProt Q92794, residues 1-181)
Setting: 8-mer, flanks averaged, mean of 2 arrays, mostly near background
Construct (chain): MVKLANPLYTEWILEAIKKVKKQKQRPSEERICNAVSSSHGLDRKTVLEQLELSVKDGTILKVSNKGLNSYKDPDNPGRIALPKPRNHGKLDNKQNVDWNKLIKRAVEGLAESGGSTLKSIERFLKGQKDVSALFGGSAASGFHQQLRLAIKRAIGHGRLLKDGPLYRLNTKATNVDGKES
Strand	E-score
ATTCACAG	-0.108
AACGACCA	-0.196
CAATTTGG	-0.142
AGGGGCAT	-0.296
ATAGACTC	-0.169
GGCTCAGA	0.00232
ATCGAGTG	-0.0121
ATCCATGG	-0.101

Further values, each from its own experiment
SMILES	organism	test	system	conditions	endpoint	value
O=C(O)[C@H]1O[C@@H](Oc2cc3oc(-c4ccccc4)cc(=O)c3c(O)c2O)[C@H](O)[C@@H](O)[C@@H]1O	SARS-CoV-2	cytopathic effect	Vero E6	10 µM	inhibition	0.4%
